# Measurements pooled from the literature.
# Each line is one published result; not all experiments were run side by side. Values joined by “and” are separate records of one study, mostly repeats; a detail may differ.
# Target: NUAK family SNF1-like kinase 2 (NUAK2, Homo sapiens, UniProt Q9H093)
# One construct used (Q9H093 1-628): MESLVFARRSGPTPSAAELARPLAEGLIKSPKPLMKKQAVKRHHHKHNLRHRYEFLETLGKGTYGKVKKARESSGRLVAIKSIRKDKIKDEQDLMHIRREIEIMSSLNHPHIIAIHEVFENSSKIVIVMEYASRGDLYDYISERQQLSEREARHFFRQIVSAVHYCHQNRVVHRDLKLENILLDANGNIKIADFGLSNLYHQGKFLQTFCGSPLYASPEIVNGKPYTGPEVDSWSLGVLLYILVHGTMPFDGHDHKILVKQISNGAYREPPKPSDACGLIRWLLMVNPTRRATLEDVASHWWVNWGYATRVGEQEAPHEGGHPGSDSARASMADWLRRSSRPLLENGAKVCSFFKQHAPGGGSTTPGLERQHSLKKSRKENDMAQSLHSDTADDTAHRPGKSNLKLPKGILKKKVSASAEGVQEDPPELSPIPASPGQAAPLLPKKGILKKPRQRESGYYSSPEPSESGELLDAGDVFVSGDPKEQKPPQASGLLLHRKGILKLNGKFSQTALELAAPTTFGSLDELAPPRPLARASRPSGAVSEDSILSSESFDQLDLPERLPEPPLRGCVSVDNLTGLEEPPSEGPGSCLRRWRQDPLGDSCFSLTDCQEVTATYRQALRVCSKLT
Structure (SMILES),read-out,action,technique,tested at,baseline,endpoint,result
Cc1c[nH]c2nccc(-c3ccc(C(=O)N[C@@H]4c5c(F)cc(C(F)F)cc5C[C@@H]4O)cn3)c12,binding,,competition with immobilised ligand,3 µM,,remaining binding,1.1%
NC(=O)[C@@H](O)C[C@H]1CCc2sc3ncnc(O[C@H]4CC[C@H](N5CCOCC5)CC4)c3c21,enzyme activity,inhibitor,,10 µM,,inhibition,4%
CNS(=O)(=O)Nc1nccc(Cc2c(C)c3ccc(Oc4ncccc4F)cc3oc2=O)c1F,binding,,competition with immobilised ligand,10 µM,,remaining binding,84%
Cc1ccc(-c2c(/C=C(\C#N)C(=O)NC(C)C)n(CCCO)c3ncnc(N)c23)cc1,cell-free assay,,competition with immobilised ligand,1 µM,,remaining binding,92%
O=C(Cc1ccc(OCc2ccccc2)cc1)NC1(C(=O)O)CCN(C(=O)c2ccc(-c3cccc(Cl)c3)cc2)CC1,enzyme activity,inhibitor,,10 µM,,activity vs control,119%
C[C@]1(O)CCCN(c2nc(Nc3ccc(S(=O)(=O)N[C@H]4CC[C@H](CN5CCN(c6ccc(C7CCC(=O)NC7=O)cc6F)CC5)CC4)cc3)ncc2C(F)(F)F)C1 (stereo partly drawn),binding,,competition with immobilised ligand,1 µM,,remaining binding,5.6%
CNC(=O)C1CCN(c2cc(C)c(F)cc2NC(=O)c2ccc(-c3cc(O)ccc3C)c(C)c2)CC1,binding,,competition with immobilised ligand,1 µM,,remaining binding,71%
CC(=O)N1c2ccc(-c3ccc(CNC(=O)c4cn5cc(-c6cnc(N)nc6)nc(N6CCOCC6)c5n4)cc3)cc2CC[C@@H]1C,,,KINOMEscan,10 µM,,remaining binding,87%
COc1cc(Nc2nc(C)cc(-c3cnn4nc(OC)ccc34)n2)cc(C(F)(F)F)c1,binding,,competition with immobilised ligand,1 µM,,remaining binding,93%
COCC12C(=O)NC3C4(C(OC)CC1O)C1CC5(O)C(OC)C(O)C(OC(C)=O)(C1C5OC(=O)c1ccccc1)C3(O)C(OC)C24 (stereo not drawn),kinase activity,inhibitor,ProQinase kinase profiling,25 µM,control,remaining activity,105% and 106%
Nc1ncc2c(n1)-c1c([nH]c3ccc(C4=CCOCC4)cc13)CCC2,binding,,competition with immobilised ligand,1 µM,,remaining binding,100%
COc1ccc(NC(=O)Nc2ccc3c(c2)C(=O)N(C(C)CO)CC(C)C(CN(C)Cc2ccc4c(c2)OCO4)O3)cc1 (stereo not drawn),binding,,competition with immobilised ligand,10 µM,,remaining binding,72%
CN1CCN(Cc2ccc(NC(=O)c3cccc(C#Cc4cnc(N)c5ncccc45)c3)cc2C(F)(F)F)CC1,cell-free assay,,competition with immobilised ligand,0.5 µM,,remaining binding,73%
Cc1cnc2nc1Nc1cccc(c1)COC/C=C/COCc1cc(ccc1OCCN1CCOCC1)N2,cell-free assay,,,0.1 µM,,remaining signal,65%
C=CC(=O)N1CCCC(n2c(=O)c3ncccc3n(Cc3ccc(Oc4ccccc4)cc3)c2=O)C1 (stereo not drawn),cell-free assay,,competition with immobilised ligand,1 µM,,remaining binding,82%

# For quick reference, copied from above:
Structure (SMILES),read-out,action,technique,tested at,baseline,endpoint,result
C=CC(=O)N1CCCC(n2c(=O)c3ncccc3n(Cc3ccc(Oc4ccccc4)cc3)c2=O)C1 (stereo not drawn),cell-free assay,,competition with immobilised ligand,1 µM,,remaining binding,82%
